{"data": "Experimental data pooled from the literature", "note": "“And” joins repeats or separate records; there may be more than shown. ± marks the error that the study gave."}
{"Compound": "[Cl-].[Cl-].[Pt+2].[Ru+2].c1ccc(-c2nc3cc4ccccc4cc3nc2-c2ccccn2)nc1.c1cnc2c(c1)ccc1cccnc12.c1cnc2c(c1)ccc1cccnc12", "target or system": "Danio rerio", "system": "embryos", "conditions": "45 µM, 12 h", "endpoint": "survival rate", "value": "93.3 ± 4.4%"}
{"Compound": "COc1cccc(-c2n[nH]c(SCc3ccccn3)n2)c1OC", "target or system": "Salmonella typhimurium", "assay": "Ames test, plate incorporation", "system": "TA98", "conditions": "2.0 mg/plate, with rat liver S9", "endpoint": "revertant colonies per plate", "value": 17}
{"Compound": "CC(C)(C)c1cc(C=C(C#N)C#N)cc(C(C)(C)C)c1O", "target or system": "Plasmodium falciparum", "system": "D10", "endpoint": "IC50", "value": "1.05 µM"}
{"Compound": "Nc1ncnc2c([C@@H]3N[C@H](CO)[C@@H](O)[C@H]3O)c[nH]c12", "target or system": "HeLa", "conditions": "100 µM", "endpoint": "cell number", "value": "4560 and 3670"}
{"Compound": "OC(CCN1CC=C(c2ccc(F)cc2)CC1)c1ccc(F)c2ccccc12 (stereo not drawn)", "target or system": "Salmonella typhimurium", "assay": "SOS/umu test", "system": "TA1535/pSK1002, TGA medium", "conditions": "0.000488 mg/mL, 4 h, without S9", "endpoint": "survival", "value": "123%"}
{"Compound": "O=c1ccc2ccccc2o1", "target or system": "HepaRG 3D spheroids", "assay": "glutathione content", "conditions": "168 h, high-content imaging", "endpoint": "point of departure", "value": "576 µM"}
{"Compound": "O=C1c2c(O)c(=O)ccn2N([C@@H]2c3ccccc3SCc3c2ccc(F)c3F)[C@@H]2COCCN12", "system": "BALB/c mice, plasma", "conditions": "oral, 1.5 mg/kg baloxavir marboxil, 0.5 h", "endpoint": "plasma concentration", "value": "12.9 ng/mL"}
{"Compound": "CN1CC[C@@H](c2c(O)cc(O)c3c(=O)cc(-c4ccc(C(F)(F)F)cc4Cl)oc23)[C@@H]1CO", "assay": "refers to: Neutropenia", "system": "relapsed or refractory haematological malignancies", "conditions": "oral, dose not given, grade 3 to 4, all arms", "endpoint": "patients with adverse event", "value": "7.5%"}
{"Compound": "CO[C@H]1C[C@@H]2CC[C@@H](C)[C@@](O)(O2)C(=O)C(=O)N2CCCC[C@H]2C(=O)O[C@H]([C@H](C)C[C@@H]2CC[C@@H](OC(=O)NCCOCCOCCOCCOCCOCCOCCOCCOCCC(=O)N3CCc4cc(Cn5nc(-c6ccc7oc(N)nc7c6)c6c(N)ncnc65)ccc4C3)[C@H](OC)C2)C[C@@H](O)[C@H](C)/C=C(\\C)[C@@H](O)[C@@H](OC)C(=O)[C@H](C)C[C@H](C)/C=C/C=C/C=C/1C", "system": "patients with advanced solid tumours", "conditions": "intravenous, 12 mg weekly, grade 3 or higher", "endpoint": "decreased appetite incidence", "value": "8.3%"}
{"Compound": "CC(C)CC(=O)OC[C@H]1O[C@@](C#N)(c2ccc3c(N)ncnn23)[C@H](O)[C@@H]1O", "target or system": "ATP-dependent translocase ABCB1 (ABCB1, Homo sapiens, UniProt P08183)", "system": "Caco-2", "conditions": "0.9 µM, with: verapamil 100 µM", "endpoint": "Papp A to B", "value": "1.55 ×10⁻⁶ cm/s"}
{"Compound": "COc1cc2c(Oc3ccc4[nH]c(C)cc4c3F)ccnc2cc1OCC1(N)CC1", "system": "paediatric recurrent refractory sarcoma", "conditions": "10 mg", "endpoint": "grade 1 or 2 Fever", "value": "25%"}
{"Compound": "CC(=O)N1CCC(C(=O)N2CCN3C(=O)c4cc(-c5ccccc5)ccc4NC(=O)C3C2)CC1 (stereo not drawn)", "target or system": "Escherichia coli", "system": "WP2 uvrA", "conditions": "1581 µg/plate, with: rat liver S9", "endpoint": "revertants per plate", "value": 31}
{"Compound": "CC1(C)C(C=C(Cl)Cl)C1C(=O)OC(C#N)c1ccc(F)c(Oc2ccccc2)c1 (stereo not drawn)", "target or system": "human cytosolic CES1", "assay": "IVIVE from expressed enzymes", "system": "human, liver, in vivo scaled", "conditions": "0.1 µM, age-specific", "endpoint": "enzyme contribution to CLint", "value": "37.9%"}
{"Compound": "CCCC[C@H](NC(C)=O)C(=O)N[C@@H](CO)C(=O)N[C@H](C(=O)N1CCC[C@H]1C(=O)N[C@@H](C)C(=O)N[C@@H](CCCNC(=N)N)C(=O)N[C@@H](CCCNC(=N)N)C(=O)N[C@@H](CCCNC(=N)N)C(=O)N[C@@H](CC(C)C)C(=O)N[C@@H](CCCC)C(=O)N[C@@H](CCCNC(=N)N)C(=O)N[C@@H](CC(=O)O)C(=O)N[C@@H](Cc1ccccc1)C(=O)N[C@@H](CCCCN)C(=O)N[C@@H](CCCNC(=N)N)C(=O)N[C@@H](CC(C)C)C(=O)N[C@@H](CCC(N)=O)C(N)=O)[C@@H](C)O", "target or system": "proteinase K", "assay": "LC-MS", "conditions": "25 µM, 61.4 min, pH 7.4", "endpoint": "remaining peptide", "value": "6.1%"}
{"Compound": "COc1cc(Cc2cnc(N)nc2N)cc(OC)c1OC", "target or system": "Plasmodium falciparum", "system": "HB3", "endpoint": "IC50", "value": "10 µM"}
{"Compound": "Cc1cc2nc3c(=O)[nH]c(=O)nc-3n(C[C@H](O)[C@H](O)[C@H](O)COP(=O)(O)O)c2cc1C", "target or system": "Oxygen-insensitive NAD(P)H nitroreductase (nfsB, Escherichia coli K-12, UniProt P38489, K14E)", "assay": "bound cofactor redox, redox titration", "conditions": "pH 7.0, 25 °C, anaerobic", "endpoint": "midpoint potential", "value": "-196 ± 1 mV"}
{"Compound": "Cc1cc(C(=O)NC(C)(C)COc2cccc3c2C(N)=NS(=O)(=O)N3)cc(C)n1", "target or system": "Salmonella typhimurium", "assay": "Ames test, initial", "system": "TA1535", "conditions": "5000 µg/plate, with: rat liver S9", "how to read": "baseline: solvent control", "endpoint": "revertant ratio", "value": 1.2}
{"Compound": "O=[N+]([O-])c1ccc(N2CCN(CCC(O)c3ccc(F)cc3)CC2)c(C(F)(F)F)c1 (stereo not drawn)", "target or system": "Salmonella typhimurium", "assay": "genotoxicity, SOS/umu test", "system": "TA1535/pSK1002", "conditions": "0.031 mg/mL, 4 h, with S9, full range", "endpoint": "induction factor", "value": 2}
{"Compound": "CCN(CC)C(=O)[C@@H]1C=C2c3cccc4[nH]cc(c34)C[C@H]2N(C)C1", "assay": "refers to: intermittent shortness of breath", "system": "healthy volunteers", "conditions": "dose not given, 12 to 24 h", "how to read": "baseline: placebo, direction not given", "endpoint": "List of Complaints score", "value": 0}
{"Compound": "CC1(C)[C@H](C(=O)OCc2cccc(Oc3ccccc3)c2)[C@@H]1C=C(Cl)Cl", "target or system": "human microsomal CES2", "assay": "IVIVE from expressed enzymes", "system": "human, 6 months old, expressed human CES2", "conditions": "0.1 µM", "how to read": "baseline: total hepatic CLint in vivo", "endpoint": "relative enzyme contribution", "value": "3.88%"}
{"Compound": "OCc1ncc2n1-c1ccc(Cl)cc1C(c1ccccc1F)=NC2", "target or system": "CYP3A4", "assay": "substrate", "system": "human, plasma", "conditions": "oral, 2 mg midazolam, day 14, cocktail with binimetinib and encorafenib", "endpoint": "Cmax", "value": "56.7 ng/mL"}
{"Compound": "Cc1ncc2n1-c1ccc(Cl)cc1C(c1ccccc1F)=NC2", "target or system": "Cytochrome P450 3A4 (CYP3A4, Homo sapiens, UniProt P08684)", "system": "human, plasma", "conditions": "oral, 2 mg, day 1, alone, arithmetic mean", "endpoint": "AUC(0-inf)", "value": "22.1 ng·h/mL"}
{"Compound": "Fc1ccc(C2=CCNCC2)cc1", "target or system": "Salmonella typhimurium", "assay": "genotoxicity, SOS/umu test", "system": "TA1535/pSK1002", "conditions": "0.008 mg/mL, 4 h, without S9, full range", "endpoint": "induction factor", "value": 1.1}
{"Compound": "C#Cc1ccc2c(c1)C(c1ccccn1)=NCc1c(-c3cnco3)ncn1-2", "assay": "thermodynamic equilibrium, UV", "system": "ethanol", "conditions": "24 h, 25 °C", "endpoint": "solubility", "value": "3820 µg/mL"}
{"note": "Some of these lines once more:"}
{"Compound": "O=C1c2c(O)c(=O)ccn2N([C@@H]2c3ccccc3SCc3c2ccc(F)c3F)[C@@H]2COCCN12", "system": "BALB/c mice, plasma", "conditions": "oral, 1.5 mg/kg baloxavir marboxil, 0.5 h", "endpoint": "plasma concentration", "value": "12.9 ng/mL"}
